{"data": "Results of several laboratories", "note": "Each numbered part is a random draw from the data of one study; scales do not carry over between parts."}
{"data": "Set 1", "target": "Histone acetyltransferase KAT6A, winged helix 1, GST fusion (KAT6A, Homo sapiens, UniProt Q92794, residues 1-85)", "method": "protein binding microarray", "form": "double-stranded DNA, one strand shown", "matrix": "in vitro", "tested at": "not given", "setting": "8-mer, flanks averaged, mean of 2 arrays, mostly near background", "baseline": "not given", "reading": "higher = stronger binding", "Target sequence (chain)": "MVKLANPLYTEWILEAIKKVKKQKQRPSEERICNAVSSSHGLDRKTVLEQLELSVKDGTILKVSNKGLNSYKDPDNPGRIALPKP"}
{"Sequence": "CTGTGATC", "E-score": -0.165}
{"Sequence": "CCTCATCA", "E-score": -0.245}
{"Sequence": "TAAGACGA", "E-score": -0.104}
{"Sequence": "AATCGCTA", "E-score": 0.0591}
{"Sequence": "CCAACCAG", "E-score": -0.0923}
{"Sequence": "CTCCTTAA", "E-score": -0.0663}
{"data": "Set 2", "target": "Sal-like protein 4, full length isoform A (SALL4, Homo sapiens, UniProt Q9UJQ4, residues 1-1053)", "method": "universal PBM", "form": "double-stranded DNA, one strand shown", "matrix": "in vitro", "tested at": "600 nM", "setting": "8-mer, flanks averaged, mean of replicates", "reading": "higher = stronger binding", "UniProt Q9UJQ4, sequence (whole entry, looked up)": "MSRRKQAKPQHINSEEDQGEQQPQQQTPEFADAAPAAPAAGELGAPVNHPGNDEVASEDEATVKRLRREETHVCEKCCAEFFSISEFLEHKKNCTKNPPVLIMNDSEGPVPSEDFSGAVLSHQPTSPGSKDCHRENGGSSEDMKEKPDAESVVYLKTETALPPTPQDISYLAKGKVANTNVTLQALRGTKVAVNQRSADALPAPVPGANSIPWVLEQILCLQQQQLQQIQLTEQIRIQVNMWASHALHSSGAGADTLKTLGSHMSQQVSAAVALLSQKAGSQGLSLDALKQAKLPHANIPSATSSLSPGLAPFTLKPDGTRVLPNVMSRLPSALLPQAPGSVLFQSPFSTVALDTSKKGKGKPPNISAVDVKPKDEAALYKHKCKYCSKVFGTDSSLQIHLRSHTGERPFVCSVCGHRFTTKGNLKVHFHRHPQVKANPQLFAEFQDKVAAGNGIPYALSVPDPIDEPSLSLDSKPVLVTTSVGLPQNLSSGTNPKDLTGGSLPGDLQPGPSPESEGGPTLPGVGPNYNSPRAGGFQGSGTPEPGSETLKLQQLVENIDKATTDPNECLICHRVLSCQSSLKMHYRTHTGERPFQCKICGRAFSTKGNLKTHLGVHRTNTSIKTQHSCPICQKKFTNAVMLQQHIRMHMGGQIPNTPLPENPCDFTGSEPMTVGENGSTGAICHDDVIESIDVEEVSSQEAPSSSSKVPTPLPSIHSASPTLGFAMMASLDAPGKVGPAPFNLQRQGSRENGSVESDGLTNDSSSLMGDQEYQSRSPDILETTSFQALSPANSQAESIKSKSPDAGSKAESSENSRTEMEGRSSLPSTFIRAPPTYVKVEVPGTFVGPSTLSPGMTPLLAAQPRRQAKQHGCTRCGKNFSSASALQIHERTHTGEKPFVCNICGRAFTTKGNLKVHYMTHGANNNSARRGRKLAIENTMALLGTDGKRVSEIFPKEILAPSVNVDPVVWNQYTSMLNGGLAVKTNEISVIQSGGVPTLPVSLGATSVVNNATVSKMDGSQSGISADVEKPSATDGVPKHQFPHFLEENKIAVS"}
{"Sequence": "AGACACTC", "E-score": -0.165}
{"Sequence": "GGACCATA", "E-score": -0.11}
{"Sequence": "GAAGCCTC", "E-score": -0.219}
{"Sequence": "GGGGTCCA", "E-score": -0.352}
{"Sequence": "ATGCCTTC", "E-score": -0.105}
{"Sequence": "TAAGGACA", "E-score": 0.0428}
{"Sequence": "GATCCACA", "E-score": 0.0559}
{"data": "Set 3", "target": "Prothrombin, mature alpha-thrombin (F2, Homo sapiens, UniProt P00734)", "method": "aptamer microarray, sandwich", "form": "DNA with 2'F-ANA", "matrix": "in vitro", "tested at": "200 nM", "setting": "whole 15-mer aptamer, many near background", "added": "Cy3 exosite-II aptamer, 400 nM", "reading": "higher = stronger binding", "sequence": "GGTTGGTGTGGTTGG"}
{"Modification": "2'F-ANA at 1 3 8 9 11 13 15", "mean fluorescence intensity [a.u.]": 325}
{"Modification": "2'F-ANA at 3 7 9 10 11 12 14 15", "mean fluorescence intensity [a.u.]": 368}
{"Modification": "2'F-ANA at 2 3 4 7 8 9 12 13 15", "mean fluorescence intensity [a.u.]": 684}
{"Modification": "2'F-ANA at 2 3 6 8 9 11 15", "mean fluorescence intensity [a.u.]": 627}
{"Modification": "2'F-ANA at 3 5 7 9 10 13 14 15", "mean fluorescence intensity [a.u.]": 49.3}
{"Modification": "2'F-ANA at 2 3 6 7 10 13 15", "mean fluorescence intensity [a.u.]": 294}
{"data": "Further values, each from its own experiment"}
{"Substance": "PhoQ, residues 284 288 289 292 302 303 SMYGEC", "target": "PhoP, residues 12 14 15 18 19 VHSCL (Escherichia coli, UniProt P23836)", "assay": "Sort-seq, measured: YFP reporter", "system": "E. coli", "conditions": "PhoQ-PhoP variant library, added: 10 µM Mg2+", "how to read": "baseline: high Mg2+ state, higher = stronger signaling", "measurement": "fold induction", "value": 8.03}
